Measured values from different studies.
Every numbered part comes from another study and shows a few of its results, in no order.

Study 1 — technique: RNA Bind-n-Seq; form: RNA; matrix: in vitro; concentration: 200 nM; notes: whole 134-nt RNA, ends assumed; added: 150 mM KCl; reference: input library; reading: higher = stronger binding
Target: Fragile X messenger ribonucleoprotein 1, C-terminal low-complexity region (Fmr1, Mus musculus, UniProt P35922)
Constant ends, left off below: GGGAGUUCUACAGUCCGACGAUC … UGGAAUUCUCGGGUGUCAAGG
Strand	log2 enrichment
GUCCUGUGCUACACAUCGUAUGUACCGAAUCGGGGCCCCCGGCCCCCGGGGCCCCCGGAAAGUAUUAUGUUACGCCGUUCGGAUCUGCAC	-1.03
CAAGUCCUGUGCUACACAUCGUAUGUACCGAAUCAAACCCAAACCCAAAUUUAAAAAAGUAUUAUGUUACGCCGUUCGGAUCUGCACUUC	-0.168
UGGGAGGUGGAUUUUGUUUAUUUUUUUAGCUCAUUUCCAGGGGUGGGAAUUUUUUUUUAAUAUGUGUCAUGAAAAAAGUUGUUUUUGAAA	0.397
UGGCCCUGGUGGCAUGCGGGGAGGAAGAGGUGGCCUCAUGGAUCGUGGUGGUCCCGGUGGAAUGUUCAGAGGUGGCCGUUGUGGAGACAG	-0.0981
UCCUGUGCUACACAUCGUAUGUACCGAAUCAAAUUUUUUUAAAUUUUUAAAUUUUUAAAAAAGUAUUAUGUUACGCCGUUCGGAUCUGCA	-0.493
UCCUGUGCUACACAUCGUAUGUACCGAAUCGGGGUGGGGAAAAAAAGGGGAAAAAGGGGAAAGUAUUAUGUUACGCCGUUCGGAUCUGCA	0.566
UCAAGUCCUGUGCUACACAUCGUAUGUACCGAAUCGGCCCGGGCCCGGCCCGGGAAAGUAUUAUGUUACGCCGUUCGGAUCUGCACUUCC	-0.759
UAACUUUAGAGGAGGAUCCGAUGGAUAUGGCAGUGGACGUGGAUUUGGGGAUGGCUAUAAUGGGUAUGGAGGAGGACCUGGAGGUGGCAA	0.347
UGGCCCUGGUGGCAUGCGGGGAGGAAGAGGUGGCCUCAUGGAUCGUGGUGGUCCCGGUGGUAUGUUCAGAGGUGGCCGUGGUGGAGACAG	-0.00748
AAGUCCUGUGCUACACAUCGUAUGUACCGAAUCGGAAAAGGGAAAAGGGGAAAAGGGAAAGUAUUAUGUUACGCCGUUCGGAUCUGCACU	-0.224
UGUUCACAUUUUAAGGAUGACAAGUCCACUAUAUGUAACACGUAAGAAUGCUAUCCUGGCAGUAGACACAGGGCCAGAAUAAACUGGCAA	-0.543
UUUAGCCUGUGGAAUGAUAGCAGUAGGGUCCUGCAAUGGAGAUGUAACUUCCACUAUCCUUCAGACCAUCAUGGAGAAGUCAGAGACUGA	-0.974
CACAGACAACACGCACCCACACAGACACAGAGGGAAGGGGUUGGGAUGCGGACAGGGUGCACAGCAGGGCGGGGUAGGACCCCAGCCCCU	0.895
UCAUGUAUAGACAACGCCAUUAUUGACGAGAUCACUCCCAAGCGGAUUGGAGAUUGUCCCAAUAUUUAGACCUAUAGCAAGGCCUUGGGA	0.385

Study 2 — technique: protein binding microarray; form: double-stranded DNA, one strand shown; matrix: in vitro; concentration: not given; reference: not given; reading: higher = stronger binding
Target: Histone acetyltransferase KAT6A, winged helix 1, GST fusion (KAT6A, Homo sapiens, UniProt Q92794, residues 1-85)
Notes: 8-mer, flanks averaged, mean of 2 arrays, mostly near background
Residues (chain): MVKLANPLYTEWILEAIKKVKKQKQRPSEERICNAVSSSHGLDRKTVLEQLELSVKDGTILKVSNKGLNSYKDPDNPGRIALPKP
Strand	E-score
AACAGTAC	0.0364
CAACTTAC	-0.159
CCCTTCTA	-0.0826
ACACGGGG	0.31
AGAAAGAT	-0.129
TAATCCAA	-0.199
AGGAACCT	-0.136
ACTCCTGG	-0.131
CCGGGCTA	0.242
CAGTGGAC	-0.14
GACCCTCC	0.00957
TCTATACA	-0.139
AGTCAACA	-0.247
CGAGCTGC	0.0585
CAGAAACC	-0.146
AGCTCGTC	-0.157
ATAACTAA	-0.16
GATCTTCA	-0.0997
ACTCAAAT	-0.114
CGGTTTAG	0.0689
CCTACACG	-0.024
GAAGCATC	-0.239
AATCCCTG	-0.2
ACCTTGTC	0.134
TGATAACA	-0.139

Study 3 — technique: protein-binding microarray; form: double-stranded DNA, one strand shown; matrix: in vitro; concentration: 2540 nM top; notes: 60-bp whole probe; added: salmon DNA 0.4 mg/ml; reference: random background probes; reading: higher = stronger binding; constant ends, left off below: GCCTAGCAC … GTCTTGATTCGCTTGACGCTGCTG
Target: Interferon regulatory factor 3, full length, phosphomimetic (IRF3, Homo sapiens, UniProt Q14653, residues 1-427, S386D/S396D/S398D/S402D/T404D/S405D)
Residues (chain): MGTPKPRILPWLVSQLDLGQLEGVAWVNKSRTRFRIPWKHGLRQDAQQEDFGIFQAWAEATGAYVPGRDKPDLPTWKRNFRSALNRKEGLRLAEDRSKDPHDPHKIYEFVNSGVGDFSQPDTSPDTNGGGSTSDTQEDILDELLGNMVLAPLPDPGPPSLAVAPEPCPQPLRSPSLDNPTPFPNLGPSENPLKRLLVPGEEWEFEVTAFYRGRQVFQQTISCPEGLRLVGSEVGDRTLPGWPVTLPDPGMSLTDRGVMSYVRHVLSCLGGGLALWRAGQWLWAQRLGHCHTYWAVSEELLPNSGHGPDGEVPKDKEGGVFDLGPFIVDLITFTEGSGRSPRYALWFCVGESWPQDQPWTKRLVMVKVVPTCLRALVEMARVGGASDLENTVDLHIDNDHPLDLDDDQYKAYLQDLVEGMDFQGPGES
Strand	fitted relative affinity [z-score]
TTAGGTTCCGACTATCGGTTAGTGCTA	3.19
AGATTCCTCTCACCTCGGCCTGTGCTA	1.65
TTATGTTTCGGACTGGGTTAGTGCTAG	3.23
GACGGTTTCGGTCTCCGGACGTGCTAG	8.12
GAGGGTTTCGGACTGGGGACGTGCTAG	2.52
TTAGATCTCAGACAGGATTAGTGCTAG	-0.14
GACGGTTTCCTTCTGCTGACGTGCTAG	6.87
TTAGGACTGCTAGTGCTTTAGTGCTAG	-0.821
TCAAGTCTCTGTTCTTTACTGTGCTAG	1.04
TCACTTCCCCTCTCTTTCACTGTGCTA	2.62
GACGGTAACGGTCTCGGGACGTGCTAG	0.0775
TCAAGCTTCCATTTTCTACTGTGCTAG	1.59
TTAGGACTGGGGACTGGGTTCGTGCTA	-1.19
TTAGAACTGAGACTGGATTCGTGCTAG	-0.197
TGAAATCTCTTTCCTTACTTGTGCTAG	3.12
TGCAACATCCCAATGGCCCTGTGCTAG	-0.05
TTAGATATCGGGTATCCATTAGTGCTA	0.575
TTAGGTTTCGACACTGGGTTGGTGCTA	2.39
TTATGACTGGACTATCGGTTAGTGCTA	-0.188
GACGATTTCACTTCCGAGACGTGCTAG	3.31
TTAGATTCCAGATTCGATTAGTGCTAG	3.45

Study 4 — technique: RNA Bind-n-Seq; form: RNA; matrix: in vitro; concentration: 365 nM; reference: no-protein control; reading: higher = stronger binding
Target: RNA binding protein fox-1 homolog 2, RRM domain, GST-SBP tag (RBFOX2, Homo sapiens, UniProt O43251-10, residues 100-194)
Notes: natural RNA segment, single round, ends assumed
Constant ends, left off below: GGGAGUUCUACAGUCCGACGAUC … UGGAAUUCUCGGGUGCCAA
Residues (chain): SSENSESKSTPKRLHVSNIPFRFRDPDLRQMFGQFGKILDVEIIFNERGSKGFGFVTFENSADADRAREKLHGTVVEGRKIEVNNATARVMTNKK
Strand	RBNS enrichment (R)
CUUCUACUACUUGCUAUUACCUCCUUGUAUGAGAAAUGGAUUAAACUUCUAUGCCUAUGGUUGGUCACUGUGGUAUCUGCAUUUCCACCAUGACAUACAGUUUCAGGUAA	0.288
AAAAUAUGCAUGUUGUCUCUGAAAAGUAGGCAUUGAAACAGACUUUUUUGUAGUCAGUGUUAAUAAAACGGAUCCUGUUUGGGCCUUCAUUGUUAAGGUGGACUUCAUGG	2.09
AUUCAGGAGUGAGCCUCUGUGACCCUUGGGGUGCUCGCAGAAGGCCUCUCCAAGCAGUCAAGCCCUCUUGCAAAUUCAGCCACUGCUUUGAGCCCAAAACGGGAAUAUUA	0.394
AGAAACUGAAUCCAUGUAAGAAAAAAUAAUUGUUGAAGAAAGAAGUUGAUAGAAUUCAAAAAGGCCAUCUUUUUGCUUUCACAUCAAUAAAAUUUACCAAGUAAUAGAUC	0.601
ACAAUGUGGAAAGCUGAUAUACCUGUGCAAAAUCUUUGCCUCUGUGCUGUCAGUGUGAUGUGCUUUCUGCAUGGUUAUAUACUACUAGUGAUUUUAUCAAAACUUCUAAA	0.42
AAACCAGAAUAUGCAUUACUUUGGUUUAAUACUUAGUGCUAACAUUGAAACUGUUGGUGGUGAUGGAUUUUGUAGCUUGCUGCUUGUUUCACCACUGGUCAAAUUUUAAC	1.22
UUCCCAAUGUUGGAUAUUUCUACAUGAAUAAAGCAAGGAUCAGUGCCUCUUAUGUAAUUAACGCUCCUUGCUUUUGUGUAUGUAUGUGUGUUUGGGUUAUUCUUUACUUA	0.732
GAUCCCAGUGCCUAGCACUGGGUAAGCUACCCCAGACAACUAGCCUUCCUUAUACCCAAACGCUGGUCGGUGGAAAUAGAAAGUCACCCCUCCCCCAUCGCCUCUUUCUC	0.508
UUUUUUAAAUACACUUGAAAUAAAAAUGAUUAAACUAAAUUUUGGUCCAGUGACAUUACUUUGCACUGCAUAAUCCAUUAUACGUUGUACGACUUUUUUUUUUUGUUUUA	0.595
CGCCCCCUGUGGUCAAGCCUCUGGUGGGCGUCUUGCCCAGUUCCUGAUGGUUCAAGGGGAGGGGGGAUGUUGGCCAGGCCCCAGGGCACAGCCCUGACACAGGUGUGGCU	0.254
GCUCCUGCCGGGUUCCUGCUCAGGCUGGAAUUGGGAAAAUAUGCAGGUGACAUUUGUUCAUUCUCUAAUCCCAUCCUCUCACCCAUCCAUUUCCUCACUCAGUGGAGAUU	0.191
AACCACCACCAGAGAAAAGCAGGCCUGUGCAGUGCAGAUGCAAUGGAACGCAUCCCACCUUGCCAAAGCACUCAUACCAGUCGACUGUGCUCACUAGCAGGACACUGAAG	2.58
